Assay results from different studies.
Parts stem from different laboratories: compare values within a part only.
Sequence of UniProt Q13882 (whole entry, looked up): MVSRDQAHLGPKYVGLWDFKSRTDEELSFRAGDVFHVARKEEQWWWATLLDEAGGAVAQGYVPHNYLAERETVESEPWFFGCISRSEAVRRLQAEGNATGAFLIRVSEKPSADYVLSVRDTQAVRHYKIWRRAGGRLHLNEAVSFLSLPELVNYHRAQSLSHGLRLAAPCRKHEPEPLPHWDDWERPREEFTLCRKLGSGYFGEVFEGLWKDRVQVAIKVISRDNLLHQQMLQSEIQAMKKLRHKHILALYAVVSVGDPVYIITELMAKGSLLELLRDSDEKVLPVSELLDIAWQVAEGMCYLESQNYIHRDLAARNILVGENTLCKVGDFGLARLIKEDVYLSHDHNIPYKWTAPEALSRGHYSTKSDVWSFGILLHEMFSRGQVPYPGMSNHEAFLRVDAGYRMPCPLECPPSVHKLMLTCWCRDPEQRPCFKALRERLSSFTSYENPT
Sequence of UniProt P22612 (whole entry, looked up): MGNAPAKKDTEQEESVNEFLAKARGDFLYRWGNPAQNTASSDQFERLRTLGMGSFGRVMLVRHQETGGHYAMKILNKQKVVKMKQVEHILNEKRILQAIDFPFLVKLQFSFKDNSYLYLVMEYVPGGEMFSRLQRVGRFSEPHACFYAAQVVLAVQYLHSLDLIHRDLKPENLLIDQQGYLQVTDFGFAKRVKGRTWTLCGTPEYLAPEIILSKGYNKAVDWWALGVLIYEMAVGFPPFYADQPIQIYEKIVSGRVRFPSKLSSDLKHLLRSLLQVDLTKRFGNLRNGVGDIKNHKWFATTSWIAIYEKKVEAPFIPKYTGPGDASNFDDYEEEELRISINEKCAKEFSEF
Sequence of UniProt Q9Y6E0 (whole entry, looked up): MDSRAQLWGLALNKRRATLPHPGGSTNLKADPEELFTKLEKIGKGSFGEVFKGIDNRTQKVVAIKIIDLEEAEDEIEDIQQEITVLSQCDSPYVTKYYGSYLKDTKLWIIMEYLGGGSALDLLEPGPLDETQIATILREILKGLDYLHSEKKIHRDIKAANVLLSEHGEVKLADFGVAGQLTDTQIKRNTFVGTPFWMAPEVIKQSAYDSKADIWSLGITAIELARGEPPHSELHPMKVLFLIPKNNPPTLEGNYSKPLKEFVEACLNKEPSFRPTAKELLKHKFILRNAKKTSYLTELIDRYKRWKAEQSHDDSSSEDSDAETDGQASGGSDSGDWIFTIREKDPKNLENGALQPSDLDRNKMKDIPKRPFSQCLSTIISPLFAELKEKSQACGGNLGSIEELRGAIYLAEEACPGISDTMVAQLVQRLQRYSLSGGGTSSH
Sequence of UniProt Q16644 (whole entry, looked up): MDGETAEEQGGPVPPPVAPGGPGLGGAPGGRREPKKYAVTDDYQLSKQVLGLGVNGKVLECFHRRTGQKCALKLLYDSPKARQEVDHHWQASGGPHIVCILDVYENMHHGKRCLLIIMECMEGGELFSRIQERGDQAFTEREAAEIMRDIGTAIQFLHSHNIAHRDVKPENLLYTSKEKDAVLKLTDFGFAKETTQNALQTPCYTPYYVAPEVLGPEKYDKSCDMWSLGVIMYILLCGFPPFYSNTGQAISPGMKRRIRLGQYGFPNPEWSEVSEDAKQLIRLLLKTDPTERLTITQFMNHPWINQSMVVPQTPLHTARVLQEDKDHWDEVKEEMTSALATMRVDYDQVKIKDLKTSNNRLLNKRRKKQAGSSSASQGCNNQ
Sequence of UniProt Q00536 (whole entry, looked up): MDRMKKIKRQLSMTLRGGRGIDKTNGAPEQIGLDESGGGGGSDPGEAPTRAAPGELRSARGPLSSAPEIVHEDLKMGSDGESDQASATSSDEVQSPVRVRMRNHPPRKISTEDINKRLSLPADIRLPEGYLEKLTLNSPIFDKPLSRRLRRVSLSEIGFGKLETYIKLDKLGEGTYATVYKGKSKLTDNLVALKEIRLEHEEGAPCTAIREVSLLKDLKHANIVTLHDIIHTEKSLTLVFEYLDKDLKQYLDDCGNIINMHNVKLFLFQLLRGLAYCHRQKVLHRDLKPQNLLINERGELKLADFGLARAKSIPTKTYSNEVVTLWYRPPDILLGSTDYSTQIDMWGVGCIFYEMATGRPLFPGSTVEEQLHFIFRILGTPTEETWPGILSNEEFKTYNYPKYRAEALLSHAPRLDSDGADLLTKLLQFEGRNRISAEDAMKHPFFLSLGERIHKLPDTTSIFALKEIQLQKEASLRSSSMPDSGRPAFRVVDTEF
Sequence of UniProt Q9Y2I7 (whole entry, looked up): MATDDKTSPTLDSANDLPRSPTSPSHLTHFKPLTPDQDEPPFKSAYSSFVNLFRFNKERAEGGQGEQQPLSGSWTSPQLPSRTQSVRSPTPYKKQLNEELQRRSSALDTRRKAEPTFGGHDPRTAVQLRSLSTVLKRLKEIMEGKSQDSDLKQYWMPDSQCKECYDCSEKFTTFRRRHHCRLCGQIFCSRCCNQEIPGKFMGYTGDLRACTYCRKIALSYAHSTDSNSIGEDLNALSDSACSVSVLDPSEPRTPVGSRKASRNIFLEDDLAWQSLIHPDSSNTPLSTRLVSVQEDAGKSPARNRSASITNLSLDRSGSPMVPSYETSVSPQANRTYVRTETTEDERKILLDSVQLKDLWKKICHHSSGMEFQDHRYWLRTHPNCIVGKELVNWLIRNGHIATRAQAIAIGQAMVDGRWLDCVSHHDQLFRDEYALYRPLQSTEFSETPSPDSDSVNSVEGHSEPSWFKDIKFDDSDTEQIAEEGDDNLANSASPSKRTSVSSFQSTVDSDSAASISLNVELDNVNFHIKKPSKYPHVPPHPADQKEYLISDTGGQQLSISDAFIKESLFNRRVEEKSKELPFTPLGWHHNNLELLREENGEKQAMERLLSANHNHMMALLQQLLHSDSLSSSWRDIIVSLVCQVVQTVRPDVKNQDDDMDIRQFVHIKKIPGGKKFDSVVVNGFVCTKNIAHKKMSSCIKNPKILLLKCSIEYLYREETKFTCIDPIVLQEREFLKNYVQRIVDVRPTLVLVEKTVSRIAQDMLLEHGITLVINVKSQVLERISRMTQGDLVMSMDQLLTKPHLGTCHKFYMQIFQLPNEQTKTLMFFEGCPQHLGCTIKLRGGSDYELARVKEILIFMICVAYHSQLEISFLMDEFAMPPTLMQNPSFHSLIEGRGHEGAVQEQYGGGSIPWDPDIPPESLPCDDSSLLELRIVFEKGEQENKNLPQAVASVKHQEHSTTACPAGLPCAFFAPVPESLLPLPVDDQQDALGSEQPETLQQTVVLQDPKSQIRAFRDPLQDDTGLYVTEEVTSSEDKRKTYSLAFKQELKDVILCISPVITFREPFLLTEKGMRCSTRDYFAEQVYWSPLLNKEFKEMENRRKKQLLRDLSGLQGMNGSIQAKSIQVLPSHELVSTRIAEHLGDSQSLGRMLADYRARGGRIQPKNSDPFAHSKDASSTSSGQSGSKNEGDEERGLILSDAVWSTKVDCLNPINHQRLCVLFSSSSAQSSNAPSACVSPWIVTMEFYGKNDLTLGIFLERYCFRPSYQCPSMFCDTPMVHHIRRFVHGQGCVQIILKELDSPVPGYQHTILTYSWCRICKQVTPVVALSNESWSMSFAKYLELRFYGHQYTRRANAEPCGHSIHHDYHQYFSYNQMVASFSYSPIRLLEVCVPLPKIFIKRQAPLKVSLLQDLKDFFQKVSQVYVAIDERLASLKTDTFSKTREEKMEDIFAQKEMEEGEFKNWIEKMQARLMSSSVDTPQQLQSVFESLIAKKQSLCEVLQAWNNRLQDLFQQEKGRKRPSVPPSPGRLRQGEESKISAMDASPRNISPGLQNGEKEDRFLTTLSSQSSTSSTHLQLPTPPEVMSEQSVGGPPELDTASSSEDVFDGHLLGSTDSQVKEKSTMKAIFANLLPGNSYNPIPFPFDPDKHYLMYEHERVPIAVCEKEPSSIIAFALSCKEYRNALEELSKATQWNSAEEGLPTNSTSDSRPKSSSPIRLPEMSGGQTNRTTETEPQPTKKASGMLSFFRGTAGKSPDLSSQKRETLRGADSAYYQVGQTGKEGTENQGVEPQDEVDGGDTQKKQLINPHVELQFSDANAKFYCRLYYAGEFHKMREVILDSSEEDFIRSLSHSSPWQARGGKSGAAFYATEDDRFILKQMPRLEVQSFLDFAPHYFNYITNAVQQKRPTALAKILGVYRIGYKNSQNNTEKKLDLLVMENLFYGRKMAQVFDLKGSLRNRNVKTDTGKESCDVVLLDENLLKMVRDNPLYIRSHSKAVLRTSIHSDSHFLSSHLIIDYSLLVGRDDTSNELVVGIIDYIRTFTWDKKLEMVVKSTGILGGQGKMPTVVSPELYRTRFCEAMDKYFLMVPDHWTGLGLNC
Sequence of UniProt Q9UQB9 (whole entry, looked up): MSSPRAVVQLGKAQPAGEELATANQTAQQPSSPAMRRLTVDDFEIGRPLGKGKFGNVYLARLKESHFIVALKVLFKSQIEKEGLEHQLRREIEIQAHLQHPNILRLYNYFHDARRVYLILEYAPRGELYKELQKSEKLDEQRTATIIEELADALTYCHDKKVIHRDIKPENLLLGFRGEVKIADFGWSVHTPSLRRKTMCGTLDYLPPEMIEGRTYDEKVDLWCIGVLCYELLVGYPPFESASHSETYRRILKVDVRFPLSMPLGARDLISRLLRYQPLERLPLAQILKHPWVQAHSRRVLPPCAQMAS

Study 1
Target: Prothrombin, mature alpha-thrombin (F2, Homo sapiens, UniProt P00734)
Technique: aptamer microarray, sandwich
Form: DNA with 2'F-ANA
Matrix: in vitro
Tested at: 200 nM
Notes: whole 15-mer aptamer, many near background
With: Cy3 exosite-II aptamer, 400 nM
Direction: higher = stronger binding
Quantity: mean fluorescence intensity
Sequence: GGTTGGTGTGGTTGG
Modification = 2'F-ANA at 2 4 8 10 12 14; value = 90.8 a.u.
Modification = 2'F-ANA at 1 3 4 6 9 10 12 14 15; value = 100 a.u.
Modification = 2'F-ANA at 1 3 5 6 7 9 10 12 14 15; value = 223 a.u.
Modification = 2'F-ANA at 1 4 6 10 11 12 13 15; value = 53.4 a.u.
Modification = 2'F-ANA at 1 3 5 6 7 11 12 13; value = 76.7 a.u.
Modification = 2'F-ANA at 2 6 12 13 14 15; value = 175 a.u.
Modification = 2'F-ANA at 1 2 3 4 8 9 13 15; value = 114 a.u.
Modification = 2'F-ANA at 4 5 8 11 12 14; value = 45.8 a.u.

Study 2
SMILES: CN(C)S(=O)(=O)c1ccc2c(c1)/C(=C/c1cc3c([nH]1)CCCC3)C(=O)N2
Observed: enzyme activity
Action: inhibitor
Tested at: 0.5 µM
Relative to: control
Quantity: remaining activity
target = Testis-specific serine/threonine-protein kinase 2 (TSSK2, Homo sapiens, UniProt Q96PF2); value = 91.8%
target = Ephrin type-B receptor 4 (EPHB4, Homo sapiens, UniProt P54760); value = 85.8%
target = MAP kinase-activated protein kinase 3 (MAPKAPK3, Homo sapiens, UniProt Q16644); value = 100%
target = cAMP-dependent protein kinase catalytic subunit gamma (PRKACG, Homo sapiens, UniProt P22612); value = 114%

Study 3
Target: Histone acetyltransferase KAT6A, both winged helices, GST fusion (KAT6A, Homo sapiens, UniProt Q92794, residues 1-181)
Technique: protein binding microarray
Form: double-stranded DNA, one strand shown
Matrix: in vitro
Tested at: not given
Notes: 8-mer, flanks averaged, mean of 2 arrays, mostly near background
Relative to: not given
Direction: higher = stronger binding
Quantity: E-score
Construct (chain): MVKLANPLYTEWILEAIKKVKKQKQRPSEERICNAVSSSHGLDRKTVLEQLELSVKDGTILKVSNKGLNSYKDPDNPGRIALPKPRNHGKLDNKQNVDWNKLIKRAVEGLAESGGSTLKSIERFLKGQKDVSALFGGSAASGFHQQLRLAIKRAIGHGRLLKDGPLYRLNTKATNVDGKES
Sequence = CGGCCTCC; value = 0.178
Sequence = AATGCGAC; value = 0.2
Sequence = GCTATACC; value = 0.108
Sequence = AAAATCTC; value = -0.191
Sequence = ACAACCAC; value = -0.0425
Sequence = AACTAACT; value = -0.0571
Sequence = ACTCGGTC; value = 0.007
Sequence = ATAAGTTC; value = -0.0178

Study 4
SMILES: Cc1c[nH]c2nccc(Oc3c(F)cc(Nc4cc(Cl)nc(N)n4)cc3F)c12
Observed: cell-free assay
Technique: competition with immobilised ligand
Tested at: 0.1 µM
Quantity: remaining binding
target = Ephrin type-A receptor 5 (EPHA5, Homo sapiens, UniProt P54756); value = 92%
target = Serine/threonine-protein kinase 24 (STK24, Homo sapiens, UniProt Q9Y6E0); value = 100%
target = Receptor-type tyrosine-protein kinase FLT3 (FLT3, Homo sapiens, UniProt P36888, K663Q); value = 87%
target = Tyrosine-protein kinase ZAP-70 (ZAP70, Homo sapiens, UniProt P43403); value = 100%
target = BMP-2-inducible protein kinase (BMP2K, Homo sapiens, UniProt Q9NSY1); value = 100%
target = STE20/SPS1-related proline-alanine-rich protein kinase (STK39, Homo sapiens, UniProt Q9UEW8); value = 94%
target = Macrophage colony-stimulating factor 1 receptor, autoinhibited (CSF1R, Homo sapiens, UniProt P07333); value = 100%
target = Protein-tyrosine kinase 6 (PTK6, Homo sapiens, UniProt Q13882); value = 100%
target = Aurora kinase C (AURKC, Homo sapiens, UniProt Q9UQB9); value = 72%
target = Serine/threonine-protein kinase MRCK beta (CDC42BPB, Homo sapiens, UniProt Q9Y5S2); value = 70%
target = 1-phosphatidylinositol 3-phosphate 5-kinase (PIKFYVE, Homo sapiens, UniProt Q9Y2I7); value = 98%
target = Ephrin type-A receptor 8 (EPHA8, Homo sapiens, UniProt P29322); value = 87%
target = Cyclin-dependent kinase 16 (CDK16, Homo sapiens, UniProt Q00536); value = 99%

A few entries again (study 4):
target = Serine/threonine-protein kinase MRCK beta (CDC42BPB, Homo sapiens, UniProt Q9Y5S2); value = 70%
target = Tyrosine-protein kinase ZAP-70 (ZAP70, Homo sapiens, UniProt P43403); value = 100%
target = BMP-2-inducible protein kinase (BMP2K, Homo sapiens, UniProt Q9NSY1); value = 100%
target = Macrophage colony-stimulating factor 1 receptor, autoinhibited (CSF1R, Homo sapiens, UniProt P07333); value = 100%
